Published values collected from several papers.
A part holds a random share of what one study measured.

Sample 1 — technique: universal PBM; form: double-stranded DNA, one strand shown; sample: in vitro; concentration: 600 nM; reading: higher = stronger binding
Target: Sal-like protein 4, full length isoform A (SALL4, Homo sapiens, UniProt Q9UJQ4, residues 1-1053)
Sequence of UniProt Q9UJQ4 (whole entry, looked up): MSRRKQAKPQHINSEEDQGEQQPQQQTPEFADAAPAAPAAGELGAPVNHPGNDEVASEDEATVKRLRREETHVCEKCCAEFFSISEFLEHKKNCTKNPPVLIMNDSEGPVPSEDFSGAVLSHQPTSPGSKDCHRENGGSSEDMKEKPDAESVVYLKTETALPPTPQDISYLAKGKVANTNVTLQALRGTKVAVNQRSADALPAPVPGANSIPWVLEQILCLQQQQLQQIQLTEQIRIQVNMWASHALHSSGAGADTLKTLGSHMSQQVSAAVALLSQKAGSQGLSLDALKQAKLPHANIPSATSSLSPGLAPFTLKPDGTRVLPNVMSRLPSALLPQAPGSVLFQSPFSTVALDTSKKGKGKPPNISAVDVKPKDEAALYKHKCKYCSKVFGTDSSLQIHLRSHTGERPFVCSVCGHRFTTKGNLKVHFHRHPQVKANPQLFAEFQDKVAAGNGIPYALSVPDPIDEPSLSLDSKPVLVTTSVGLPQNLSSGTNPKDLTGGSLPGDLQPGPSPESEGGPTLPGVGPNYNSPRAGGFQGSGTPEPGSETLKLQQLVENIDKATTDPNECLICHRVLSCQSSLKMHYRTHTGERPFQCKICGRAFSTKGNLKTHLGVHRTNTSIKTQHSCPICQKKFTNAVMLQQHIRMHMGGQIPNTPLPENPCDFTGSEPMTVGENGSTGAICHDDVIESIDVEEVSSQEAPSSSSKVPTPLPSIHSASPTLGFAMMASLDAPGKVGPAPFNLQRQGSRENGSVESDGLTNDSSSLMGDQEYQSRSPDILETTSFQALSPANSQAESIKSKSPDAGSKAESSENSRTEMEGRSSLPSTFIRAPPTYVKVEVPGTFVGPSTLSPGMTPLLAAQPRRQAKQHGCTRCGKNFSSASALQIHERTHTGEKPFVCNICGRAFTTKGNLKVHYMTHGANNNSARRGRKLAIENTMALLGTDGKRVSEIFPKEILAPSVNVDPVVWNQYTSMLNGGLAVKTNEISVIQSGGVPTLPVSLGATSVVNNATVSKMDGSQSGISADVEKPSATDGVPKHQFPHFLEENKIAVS
Setting: 8-mer, flanks averaged, mean of replicates
`CAATCTGC` gave an E-score of -0.0736.
`AAGCACAC` has an E-score of -0.173.
For `CGGTCAAA`, the E-score was 0.0637.

Sample 2 — technique: RNA Bind-n-Seq; form: RNA; sample: in vitro; concentration: 365 nM; relative to: no-protein control; reading: higher = stronger binding
Target: RNA binding protein fox-1 homolog 2, RRM domain, GST-SBP tag (RBFOX2, Homo sapiens, UniProt O43251-10, residues 100-194)
Setting: natural RNA segment, single round, ends assumed
Target sequence (chain): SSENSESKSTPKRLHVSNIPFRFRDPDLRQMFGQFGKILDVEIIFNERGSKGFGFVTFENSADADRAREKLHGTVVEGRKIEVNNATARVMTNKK
`GGGAGUUCUACAGUCCGACGAUCAGGGUCAAAGUGUCUCACCACAAACAAAGGUAUCAAAUCACAAGCCUGGCUGGCUGAGGUGGUGUGAUAGAGGUCUGUGGUAAACAGCAGAACUUAGGGUGCAGACUGACUGGAAUUCUCGGGUGCCAA` — result for “RBNS enrichment (R)”: 0.256.
For `GGGAGUUCUACAGUCCGACGAUCUUAGUGUUUUGACUUUUCUUACCCAGCGUUAAUUGAAUUCUUGCUUUUAGACAACUUCCUUUUUGUAGUGGUGAACCUUGCCCUUUAGUACAGUUCAAGUGAAUCUGGAUUGGAAUUCUCGGGUGCCAA`, “RBNS enrichment (R)” read 0.394.
`GGGAGUUCUACAGUCCGACGAUCAUAGUGAAAGCUGACCACAGUUGUUCCCAAAUAAAGGUCGGCAGCUCCUACCAGGUCUGGGAUUGAGAUGUUAGAGUCUUCAGUUUUAUAGCCGGCUCCUGAAAGCAGGCUGGAAUUCUCGGGUGCCAA`: “RBNS enrichment (R)” 0.346.
Under “RBNS enrichment (R)”, `GGGAGUUCUACAGUCCGACGAUCUUGGAUUCUAGUUGUGGUUUGAAUGCAGCAGUGUACUCUUGAAGUAAGCAGGCAAGGGUCACUGCAGGCAUGAAGCUUGGAUUGCUUCAGAUGGUUUGCCGUAUCGUUUUUGGAAUUCUCGGGUGCCAA` is recorded as 3.7.

Sample 3 — technique: aptamer microarray, sandwich; form: DNA with 2'F-ANA; sample: in vitro; concentration: 200 nM; added: Cy3 exosite-II aptamer, 400 nM; reading: higher = stronger binding
Target: Prothrombin, mature alpha-thrombin (F2, Homo sapiens, UniProt P00734)
Setting: whole 15-mer aptamer, many near background
For `GGTTGGTGTGGTTGG (2'F-ANA at 3 5 6 11 13 15)`, “mean fluorescence intensity” read 73.3 a.u.
`GGTTGGTGTGGTTGG (2'F-ANA at 1 4 6 8 14)` — result for “mean fluorescence intensity”: 54.3 a.u.
`GGTTGGTGTGGTTGG (2'F-ANA at 1 4 8 9 11 15)`: “mean fluorescence intensity” 156 a.u.
Under “mean fluorescence intensity”, `GGTTGGTGTGGTTGG (2'F-ANA at 2 3 4 5 7 8 10 11 12 13 15)` is recorded as 84.3 a.u.

Further values, each from its own experiment
With `PhoQ, residues 284 288 289 292 302 303 ASHLAV` the fold induction was 3.01 (PhoP, residues 12 14 15 18 19 LHSVQ (Escherichia coli, UniProt P23836); Sort-seq, item: YFP reporter; E. coli; PhoQ-PhoP variant library, added: 10 µM Mg2+; relative to: high Mg2+ state, higher = stronger signaling).

Repeated from above (sample 2):
For `GGGAGUUCUACAGUCCGACGAUCUUAGUGUUUUGACUUUUCUUACCCAGCGUUAAUUGAAUUCUUGCUUUUAGACAACUUCCUUUUUGUAGUGGUGAACCUUGCCCUUUAGUACAGUUCAAGUGAAUCUGGAUUGGAAUUCUCGGGUGCCAA`, “RBNS enrichment (R)” read 0.394.
